Experimental data collected from several papers.
Lines come from different studies, so protocols differ. Values joined by “and” are separate records of one study, mostly repeats; a detail may differ. ± marks the error that the study gave.
GLP1R: Glucagon-like peptide 1 receptor (GLP1R, Homo sapiens, UniProt P43220)
T1: riboswitch RNA yjdF aptamer U23A, P2a insertion (Bacillus subtilis); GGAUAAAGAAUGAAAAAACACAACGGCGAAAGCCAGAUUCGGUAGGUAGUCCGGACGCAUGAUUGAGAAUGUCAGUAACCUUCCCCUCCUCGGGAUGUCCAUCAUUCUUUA

SMILES	tested on	test	system	conditions	how to read	quantity	result
C=CC(=O)N1C/C(=C\c2ccc([N+](=O)[O-])cc2)C(=O)/C(=C/c2ccc([N+](=O)[O-])cc2)C1	NanoBiT HiBiT/LgBiT luciferase	inhibitor, HiBiT luminescence counterscreen	conditioned medium only	1.66 µM, 24 h	relative to: vehicle	luminescence signal reduction	-5.24%
CN1CCN(c2cc(-c3ccncc3)c(-c3ccc4ccccc4c3)nn2)CC1	MC5R (Homo sapiens, UniProt P33032)	agonist, FLIPR		12.5 µM		activation	-9.8%
CNc1ccc(-c2nc3ccc(O)cc3s2)cc1	Amyloid-beta precursor protein, amyloid-beta (APP, Homo sapiens, UniProt P05067)	binding, competition binding	amyloid-beta aggregates	1.235 nM, with: tritiated amyloid ligand		inhibition	34.7% and 28.9%
O=C(CO)NC1C(O)CC(OC2C(O)C(CO)OC(Oc3ccc([N+](=O)[O-])cc3)C2O)(C(=O)O)OC1C(O)C(O)CO (stereo not shown)	Sialidase-2 (Homo sapiens, UniProt Q9Y3R4)	substrate		10 min, pH 5.0, 37 °C		kcat	0.31 ± 0.01 s⁻¹
O=C(NCC1CCOCC1)c1ccc([C@H]2[C@@H](F)[C@@H](F)C[C@@H](F)[C@H]2F)cc1		hepatocyte stability	cryopreserved rat hepatocytes	1 µM		hepatic clearance	13 mL/min/kg
CC(C)C[C@H](NC(=O)C[C@H](O)[C@H](CC(C)C)NC(=O)[C@H](Cc1c[nH]cn1)NC(=O)CNC(=O)[C@@H](NC(=O)[C@H](C)NC(=O)[C@H](Cc1c[nH]c2ccccc12)NC(=O)[C@H](CCC(N)=O)NC(=O)[C@@H](Cc1ccccc1)NC(=O)COCCOCCNC(=O)CCC(C(=O)O)N1CCN(CC(=O)O)CCN(CC(=O)O)CCN(CC(=O)O)CC1)C(C)C)C(N)=O (stereo partly shown) [lutetium-177 labelled]			BALB/c nu/nu mice, female, pancreas	50 pmol, 1 h, with: PBS co-injection		tissue uptake	3.8 ± 0.4 %ID/g
CC(C)OCCn1c(=S)[nH]c(=O)c2[nH]ccc21	Myeloperoxidase (MPO, Homo sapiens, UniProt P05164)	inhibitor, cholesteryl ester hydroperoxide		0.1235 µM	relative to: control	LDL lipid peroxidation	82.3% and 141% and 58.3% and 92.4%
[H]/N=C(/N)NCC(=O)O	SLC6A6 (Homo sapiens, UniProt P31641, G62A)	binding, microscale thermophoresis		61 nM, room temperature, with: 50 nM labelled protein	higher = more binding	normalised MST signal	0.0175
C=CC(=O)N1CCC(COCC(=O)N2CCN(c3nc(-c4cnc(N)nc4C(F)F)nc(N4CCOC[C@@H]4C)n3)CC2)CC1	STK32B (Homo sapiens, UniProt Q9NY57)	KINOMEscan		1 µM		remaining binding	100%
Cn1cc(-c2ccc(-c3cncc(Cl)c3N3CCC4(CCNC4=O)CC3)cc2)cn1	COLO 205	gene expression, microarray, measured: FOXM1 mRNA		concentration not given, 6 h	relative to: untreated cells	log2 fold change	-2.31
O=C(COP(=O)(O)O)[C@@H](O)[C@H](O)[C@H](O)COP(=O)(O)O	Pyruvate kinase PKM (PKM, Homo sapiens, UniProt P14618)	pyruvate kinase activity, activator	RKO cell lysate	with: AIM		minimum concentration, maximal activation	1520 ± 359 nM
Oc1ccc(/C=C/c2cc(O)cc(O)c2)cc1	APP (Homo sapiens, UniProt P05067)	fibril formation, ThT fluorescence		10 µM, 42 h, pH 7.4, equimolar to peptide, with: amyloid-beta 1-42 10 µM	relative to: untreated amyloid-beta	ThT fluorescence	22 ± 4%
O=c1nc(SCc2cc(F)cc(C(F)(F)F)c2)nc(SCc2ccc3sccc3c2)[nH]1	TOP2A (Homo sapiens, UniProt P11388)	ATPase activity		7.8 µM, with: ATP 0.5 mM		ATP hydrolysis rate	1.11 µM/min and 1.56 µM/min
COc1cc(/C=C2\SC(=O)NC2=O)cc(F)c1OCCNc1nc2c(cnn2C2CCCC2)c(=O)[nH]1	PDE4D (Homo sapiens, UniProt Q08499)				relative to: PDE4D over PDE9	selectivity ratio	232 fold
CC(C(=O)Nc1ccc([C@H]2[C@@H](F)[C@@H](F)C[C@@H](F)[C@H]2F)cc1)n1cncn1 (stereo partly shown)			cryopreserved mouse hepatocytes	1 µM		hepatic clearance	21 mL/min/kg
CC[C@H](C)[C@H](NC(=O)[C@H](Cc1ccccc1)NC(=O)[C@H](CCC(=O)O)NC(=O)[C@H](CCCNC(=N)N)NC(=O)[C@H](C)NC(=O)[C@H](C)NC(=O)[C@H](CCC(N)=O)NC(=O)[C@H](CCC(=O)O)NC(=O)[C@H](CCC(=O)O)NC(=O)[C@H](CC(C)C)NC(=O)[C@H](Cc1ccc(O)cc1)NC(=O)[C@H](CO)NC(=O)[C@H](CO)NC(=O)[C@@H](NC(=O)[C@H](CC(=O)O)NC(=O)[C@H](CO)NC(=O)[C@@H](NC(=O)[C@H](Cc1ccccc1)NC(=O)[C@@H](NC(=O)CNC(=O)[C@H](CCC(=O)O)NC(=O)[C@H](C)NC(=O)CCc1cnc[nH]1)[C@@H](C)O)[C@@H](C)O)C(C)C)C(=O)N[C@@H](C)C(=O)N[C@@H](Cc1c[nH]c2ccccc12)C(=O)N[C@@H](CC(C)C)C(=O)N[C@H](C(=O)N[C@@H](CCCNC(=N)N)C(=O)NCC(=O)N[C@@H](CCCNC(=N)N)C(=O)N[C@@H](CCCCNC(=O)COCCOCCNC(=O)COCCOCCNC(=O)CC[C@H](NC(=O)CCCCCCCCCCCCCCCCC(=O)O)C(=O)O)C(=O)NCC(=O)NCC(=O)N[C@@H](CO)C(=O)N[C@@H](CCCCNC(=O)[C@H](CCCCNc1c(NCCCCCN(O)C(=O)CCC(=O)NCCCCCN(O)C(=O)CCC(=O)NCCCCCN(O)C(C)=O)c(=O)c1=O)Nc1c(NCCCCCN(O)C(=O)CCC(=O)NCCCCCN(O)C(=O)CCC(=O)NCCCCCN(O)C(C)=O)c(=O)c1=O)C(=O)O)C(C)C	GLP1R	agonist, CRE luciferase reporter	BHK cells	metal-free DFO conjugate, with: 1% HSA	relative to: parent peptide	fold potency loss	1.7
Nc1ncnc2c1ncn2[C@@H]1O[C@H](COP(=O)(O)CP(=O)(O)OP(=O)(O)O)[C@@H](O)[C@H]1O	P2X purinoceptor 1 (P2RX1, Homo sapiens, UniProt P51575, L218T)	saturation binding	HEK293	130 nM		specific binding	5510 CCPM and 5120 CCPM
Clc1ccccc1CNCC1CCC(CNCc2ccccc2Cl)CC1 (stereo not shown)	Segment polarity protein dishevelled homolog DVL-2, with FoxK2 (Homo sapiens, UniProt O14641)	co-immunoprecipitation, measured: FoxK2 interaction		concentration not given		nuclear protein level	increased
CC1CCCN(C(=O)c2cc3ncccn3n2)C1 (stereo not shown)	Transcription intermediary factor 1-alpha, PHD-bromodomain (TRIM24, Homo sapiens, UniProt O15164)	binding, affinity selection mass spectrometry			relative to: other proteins in batch	fold enrichment	0.954
Cc1cc2c(cc1N1C(=O)c3cccc4c(Cl)ccc(c34)C1=O)n(C)c(=O)n2C	BRPF3 (Homo sapiens, UniProt Q9ULD4)			10 µM		delta Tm	1.1 °C
CC[C@H](C)[C@H](NC(=O)[C@H](Cc1ccccc1)NC(=O)[C@H](CCC(=O)O)NC(=O)[C@H](CCCNC(=N)N)NC(=O)[C@H](C)NC(=O)[C@H](C)NC(=O)[C@H](CCC(N)=O)NC(=O)[C@H](CCC(=O)O)NC(=O)[C@H](CCC(=O)O)NC(=O)[C@H](CC(C)C)NC(=O)[C@H](Cc1ccc(O)cc1)NC(=O)[C@H](CO)NC(=O)[C@H](CO)NC(=O)[C@@H](NC(=O)[C@H](CC(=O)O)NC(=O)[C@H](CO)NC(=O)[C@@H](NC(=O)[C@H](Cc1ccccc1)NC(=O)[C@@H](NC(=O)CNC(=O)[C@H](CCC(=O)O)NC(=O)[C@H](C)NC(=O)CCc1cnc[nH]1)[C@@H](C)O)[C@@H](C)O)C(C)C)C(=O)N[C@@H](C)C(=O)N[C@@H](Cc1c[nH]c2ccccc12)C(=O)N[C@@H](CC(C)C)C(=O)N[C@H](C(=O)N[C@@H](CCCCNC(=O)COCCOCCNC(=O)COCCOCCNC(=O)CC[C@H](NC(=O)CCCCCCCCCCCCCCCCC(=O)O)C(=O)O)C(=O)NCC(=O)N[C@@H](CCCNC(=N)N)C(=O)N[C@@H](CCCCNc1c(NCCCCCN(O)C(=O)CCC(=O)NCCCCCN(O)C(=O)CCC(=O)NCCCCCN(O)C(C)=O)c(=O)c1=O)C(=O)NCC(=O)NCC(=O)N[C@@H](CO)C(=O)N[C@@H](CCCCNc1c(NCCCCCN(O)C(=O)CCC(=O)NCCCCCN(O)C(=O)CCC(=O)NCCCCCN(O)C(C)=O)c(=O)c1=O)C(=O)NCC(=O)NCC(=O)N[C@@H](CO)C(=O)N[C@@H](CCCCNc1c(NCCCCCN(O)C(=O)CCC(=O)NCCCCCN(O)C(=O)CCC(=O)NCCCCCN(O)C(C)=O)c(=O)c1=O)C(=O)NCC(=O)NCC(=O)N[C@@H](CO)C(=O)N[C@@H](CCCCNc1c(NCCCCCN(O)C(=O)CCC(=O)NCCCCCN(O)C(=O)CCC(=O)NCCCCCN(O)C(C)=O)c(=O)c1=O)C(=O)O)C(C)C	GLP1R	agonist, CRE luciferase reporter	BHK cells	Zr-loaded DFO conjugate, with: 1% HSA	relative to: parent peptide	fold potency loss	2.3
Cc1cc2nc3[nH]c(=O)[nH]c(=O)c3nc2cc1C	T1, riboswitch RNA yjdF aptamer U23A, P2a insertion (Bacillus subtilis)	fluorescence titration		with: 380 nM lumichrome		Kd	2000 nM
CS(=O)(=O)c1ccc2nc(-c3ccccc3)c(Nc3ccc(C(=O)O)cc3)n2c1	TDP2 (Homo sapiens, UniProt O95551)	gel-based fluorescence			relative to: TDP1 IC50 over TDP2 IC50	selectivity ratio	26
C#Cc1cc(-c2cc(Nc3nc(N[C@@H](C)c4ccc(F)cn4)ncc3Cl)n[nH]2)ccc1C=O	NTRK1 (Homo sapiens, UniProt P04629, G667A)	enzyme activity, inhibitor		0.2 µM		inhibition	101%
COc1cc(Cl)c(C(=O)N[C@@H](CN[C@H]2CC[C@@H](N)CC2)Cc2ccc(C#N)cc2)cc1-c1ccc(CN[C@H](C)c2ccc(C)cc2)o1	ATPase family AAA domain-containing protein 2, bromodomain (ATAD2, Homo sapiens, UniProt Q6PL18)	thermal shift		25 µM, untagged protein		ΔTm	11.4 °C
